Assay results gathered from unrelated publications.
A part holds a random share of what one study measured. Several values in a cell are separate wells, animals, samples, runs or records.

Sample 1
Target: Protein C-ets-1 (ETS1, Homo sapiens, UniProt P14921, residues 1-441, full length assumed)
Method: protein-binding microarray
Molecule type: double-stranded DNA, one strand shown
Matrix: in vitro
Concentration: not given
Notes: k-mer, scored over probes, only values ≥0.25
Direction: higher = stronger binding
Measurement: E-score
Construct (chain): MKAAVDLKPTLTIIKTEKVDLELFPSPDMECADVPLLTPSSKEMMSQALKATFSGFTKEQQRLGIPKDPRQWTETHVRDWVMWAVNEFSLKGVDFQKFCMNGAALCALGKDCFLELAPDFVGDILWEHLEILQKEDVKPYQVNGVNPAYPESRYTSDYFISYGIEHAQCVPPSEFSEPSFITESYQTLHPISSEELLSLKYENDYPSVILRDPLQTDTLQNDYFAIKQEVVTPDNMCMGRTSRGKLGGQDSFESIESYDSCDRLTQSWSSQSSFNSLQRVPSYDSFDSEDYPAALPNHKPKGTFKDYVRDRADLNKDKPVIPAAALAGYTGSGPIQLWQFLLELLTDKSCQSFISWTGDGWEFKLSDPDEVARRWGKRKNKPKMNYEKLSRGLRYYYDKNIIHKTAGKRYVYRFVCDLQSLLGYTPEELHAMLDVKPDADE
CCTGGAAG: 0.374
GCCCCGGA: 0.408
AATTTCCC: 0.321
CCTTTCCG: 0.414
TACCCGGA: 0.386

Sample 2
Target: Centromere-binding protein 1, full length, His-tagged (CBF1, Saccharomyces cerevisiae, UniProt P17106, residues 1-351)
UniProt P17106, sequence (whole entry, looked up): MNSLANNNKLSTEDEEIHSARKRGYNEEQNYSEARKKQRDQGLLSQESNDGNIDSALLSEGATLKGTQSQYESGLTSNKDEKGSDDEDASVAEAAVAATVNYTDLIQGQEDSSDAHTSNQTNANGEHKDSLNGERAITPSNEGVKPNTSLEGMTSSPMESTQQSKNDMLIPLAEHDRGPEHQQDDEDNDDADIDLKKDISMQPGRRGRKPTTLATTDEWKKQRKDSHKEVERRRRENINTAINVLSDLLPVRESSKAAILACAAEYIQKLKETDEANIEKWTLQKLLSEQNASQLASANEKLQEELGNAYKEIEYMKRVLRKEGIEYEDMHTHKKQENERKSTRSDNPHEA
Method: competition protein-binding microarray
Molecule type: double-stranded DNA, one strand shown
Matrix: in vitro
Concentration: 2 µM
Notes: whole 60-bp probe, lowest competitor level
Together with: Pho4 competitor, 0.05 µM
Direction: higher = stronger binding
Measurement: fluorescence intensity
CTTTGCCTTCTTCTCCACATGGAATTACTATTTTCAGTCTTGATTCGCTTGACGCTGCTG: 67.9 a.u.
CTAACGAAGGTTTGAGGCGTGGGTGACAAGCCAAGTGTCTTGATTCGCTTGACGCTGCTG: 64.5 a.u.
AACTATCTGAAAATTCACGTGATGGTCATTTGAGTAGTCTTGATTCGCTTGACGCTGCTG: 3390 a.u.

Sample 3
Target: Histone acetyltransferase KAT6A, both winged helices, GST fusion (KAT6A, Homo sapiens, UniProt Q92794, residues 1-181)
Method: protein binding microarray
Molecule type: double-stranded DNA, one strand shown
Matrix: in vitro
Concentration: not given
Notes: 8-mer, flanks averaged, mean of 2 arrays, mostly near background
Baseline: not given
Direction: higher = stronger binding
Measurement: E-score
Target sequence (chain): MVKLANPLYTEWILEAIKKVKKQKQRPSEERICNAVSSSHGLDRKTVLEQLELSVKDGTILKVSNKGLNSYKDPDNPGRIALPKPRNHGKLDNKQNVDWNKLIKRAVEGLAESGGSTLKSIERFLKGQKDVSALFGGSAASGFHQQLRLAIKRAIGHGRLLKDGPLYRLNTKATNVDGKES
GGAGCCCA: -0.315
ACATAGCC: -0.0516
CCGTGCGA: 0.204
ACCAACTC: -0.22
GAAAGGAC: -0.0216

Mixed results
PhoQ, residues 284 288 289 292 302 303 SNGLAW  fold induction (PhoP, residues 12 14 15 18 19 LWHCS (Escherichia coli, UniProt P23836); Sort-seq, item: YFP reporter; E. coli; PhoQ-PhoP variant library, together with: 10 µM Mg2+; baseline: high Mg2+ state, higher = stronger signaling): 9.82 and 10.5

Some of these lines once more (sample 3):
ACATAGCC: -0.0516
CCGTGCGA: 0.204
